Measurements gathered from unrelated publications.
Protocols differ between the studies behind these lines. Values joined by “and” are separate records of one study, mostly repeats; a detail may differ. ± marks the error that the study gave.
ALB: Albumin (ALB, Homo sapiens, UniProt P02768)
Chain of UniProt P33261 (whole entry, looked up): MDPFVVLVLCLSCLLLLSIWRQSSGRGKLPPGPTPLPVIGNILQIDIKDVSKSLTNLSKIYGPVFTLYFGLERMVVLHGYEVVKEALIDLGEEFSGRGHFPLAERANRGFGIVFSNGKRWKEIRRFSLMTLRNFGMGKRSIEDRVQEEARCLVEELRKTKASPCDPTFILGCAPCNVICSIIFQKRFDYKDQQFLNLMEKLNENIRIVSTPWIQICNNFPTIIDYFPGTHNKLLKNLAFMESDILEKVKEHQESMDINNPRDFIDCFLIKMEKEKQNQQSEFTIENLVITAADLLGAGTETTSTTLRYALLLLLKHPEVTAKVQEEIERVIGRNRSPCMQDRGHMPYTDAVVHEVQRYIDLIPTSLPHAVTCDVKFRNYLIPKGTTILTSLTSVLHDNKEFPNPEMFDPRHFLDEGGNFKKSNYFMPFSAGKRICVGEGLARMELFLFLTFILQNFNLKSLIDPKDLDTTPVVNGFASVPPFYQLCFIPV
Chain of UniProt P08183 (whole entry, looked up): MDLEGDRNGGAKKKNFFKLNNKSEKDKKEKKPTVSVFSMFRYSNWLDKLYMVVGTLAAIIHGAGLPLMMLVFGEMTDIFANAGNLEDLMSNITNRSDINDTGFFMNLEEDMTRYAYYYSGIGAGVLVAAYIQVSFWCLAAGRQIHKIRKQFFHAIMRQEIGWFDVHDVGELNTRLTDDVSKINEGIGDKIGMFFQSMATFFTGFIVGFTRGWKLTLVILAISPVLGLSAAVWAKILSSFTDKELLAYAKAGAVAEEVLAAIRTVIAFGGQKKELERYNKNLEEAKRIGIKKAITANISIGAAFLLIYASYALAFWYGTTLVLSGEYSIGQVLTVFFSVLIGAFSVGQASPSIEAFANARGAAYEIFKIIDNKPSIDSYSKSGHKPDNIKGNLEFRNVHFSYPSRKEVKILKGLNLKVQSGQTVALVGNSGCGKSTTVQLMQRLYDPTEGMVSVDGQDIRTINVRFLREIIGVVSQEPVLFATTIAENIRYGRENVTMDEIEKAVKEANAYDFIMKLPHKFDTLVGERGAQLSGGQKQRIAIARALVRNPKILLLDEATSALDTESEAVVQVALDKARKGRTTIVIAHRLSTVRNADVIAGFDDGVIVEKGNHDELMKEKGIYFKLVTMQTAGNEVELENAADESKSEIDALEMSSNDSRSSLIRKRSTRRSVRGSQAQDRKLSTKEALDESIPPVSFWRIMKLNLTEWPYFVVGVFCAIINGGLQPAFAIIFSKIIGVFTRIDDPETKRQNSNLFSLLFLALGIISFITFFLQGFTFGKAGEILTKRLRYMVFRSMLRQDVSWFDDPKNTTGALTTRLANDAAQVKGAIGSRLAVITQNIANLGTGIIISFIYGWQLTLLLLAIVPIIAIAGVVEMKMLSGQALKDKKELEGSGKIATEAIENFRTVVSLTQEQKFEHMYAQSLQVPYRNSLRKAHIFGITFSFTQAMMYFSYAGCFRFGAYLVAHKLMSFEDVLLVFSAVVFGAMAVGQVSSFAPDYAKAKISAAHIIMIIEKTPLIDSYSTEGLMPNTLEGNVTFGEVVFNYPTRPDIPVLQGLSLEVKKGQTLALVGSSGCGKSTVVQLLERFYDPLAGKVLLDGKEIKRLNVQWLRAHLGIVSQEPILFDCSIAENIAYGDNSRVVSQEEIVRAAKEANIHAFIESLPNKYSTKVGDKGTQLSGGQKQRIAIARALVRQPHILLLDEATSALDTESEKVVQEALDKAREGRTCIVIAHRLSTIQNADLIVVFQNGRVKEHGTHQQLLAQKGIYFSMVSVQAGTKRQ

O=C1C2CC3CC1CC(C(=O)N1CCN(c4ccc([N+](=O)[O-])c5ncccc45)CC1)(C3)C2
mean revertant colonies (Salmonella typhimurium; Ames test; TA97a; 0.02 µg/well, with S9): 23 colonies/well

O=C(Nc1cnccc1-c1ccc([18F])cc1)c1ccnc(NC(=O)C2CC2)c1
SUV (ex vivo gamma counting; FVB/NJ mice, both sexes, cerebellum; intravenous, 120 min, mean, P-gp inhibitor pretreatment, with: tariquidar 15 mg/kg iv): 0.23

CC(C)OCCOCc1ccc(OCC(O)CN(N=O)C(C)C)cc1 (centres unmarked)
revertant fold increase (Escherichia coli; Ames test; WP2 uvrA; 15.8 µg/plate, 30 % rat S9; baseline: solvent control): 0.9 fold

CC(C)Cc1ccc(C(C)C(=O)N[C@@H](CCCCNC(=O)CCOCCOCCOCCOCCOCCOCCNC(=O)CN2CCN(CC(=O)[O-])CCN(CC(=O)[O-])CCN(CC(=O)[O-])CC2)C(=O)Nc2cccc3c(C(=O)NCC(=O)N4CC(F)(F)C[C@H]4C#N)ccnc23)cc1.[177Lu+3] (some centres unmarked)
tracer uptake (U-87 MG tumour model; host not given, heart; 1 h, tumour-bearing): 4.08 %ID/g

COc1cccc(OC)c1-c1cc(C(=O)NC2(C(=O)O)C3CC4CC(C3)CC2C4)nn1-c1ccc(C(=O)N(C)CCOCCOCCN(C)C(=O)[C@H](CCCCNC(=O)[C@H](CC(C)C)NC(=O)C2OC2C(=O)O)NC(=O)CN2CCN(CC(=O)[O-])CCN(CC(=O)[O-])CCN(CC(=O)[O-])CC2)cc1C(C)C.[177Lu+3] (mixture of isomers)
tracer uptake (HT-29 tumour model; host not given, pancreas; 72 h, tumour-bearing): 0.07 %ID/g

Cc1nc(N)nc2c1C(=O)N[C@@H](c1ccc(F)cc1-c1cccc(O[11CH3])n1)C2
tracer uptake (ex vivo biodistribution; mice, U87 subcutaneous xenograft, lungs; 60 min post-injection, baseline, vehicle pre-treatment): 1.9 ± 0.2 %ID

N#C[C@@H]1CC(F)(F)CN1C(=O)CNC(=O)c1ccnc2c(NC(=O)[C@@H](N)CCCCNC(=O)CCOCCOCCOCCOCCOCCOCCNC(=O)CN3CCN(CC(=O)[O-])CCN(CC(=O)[O-])CCN(CC(=O)[O-])CC3)cccc12.[177Lu+3]
tracer uptake (U-87 MG tumour model; host not given, muscle; 48 h, tumour-bearing): 0.04 %ID/g

Cc1nc(Nc2ncc(C(=O)Nc3c(C)cccc3Cl)s2)cc(N2CCN(C(=O)CCOCCNC(=O)CN)CC2)n1
viability (K562; cell growth or viability, CCK-8; 250 pM): 93% and 91% and 94%

N#C[C@@H]1CC(F)(F)CN1C(=O)CNC(=O)c1ccnc2c(NC(=O)[C@H](CCCCNC(=O)CCOCCOCCOCCOCCOCCOCCNC(=O)CN3CCN(CC(=O)[O-])CCN(CC(=O)[O-])CCN(CC(=O)[O-])CC3)NC(=O)CCCc3ccc(I)cc3)cccc12.[177Lu+3]
tracer uptake (U-87 MG tumour model; host not given, stomach; 1 h, tumour-bearing): 4.72 %ID/g

COc1cccc(OC)c1-c1cc(C(=O)NC2(C(=O)O)C3CC4CC(C3)CC2C4)nn1-c1ccc(C(=O)NCCNC(=O)[C@H](CCCCNC(=O)[C@H](CC(C)C)NC(=O)C2OC2C(=O)O)NC(=O)CN2CCN(CC(=O)[O-])CCN(CC(=O)[O-])CCN(CC(=O)[O-])CC2)cc1C(C)C.[177Lu+3] (mixture of isomers)
tracer uptake (HT-29 tumour model; host not given, pancreas; 4 h, tumour-bearing): 0.66 %ID/g

C[C@@]1(F)[C@H](O)[C@@H](CO)O[C@H]1n1cnc2c(=O)[nH]c(N)nc21
Papp B to A (ABCB1 (Homo sapiens, UniProt P08183); bidirectional transport; LLC-PK1, human MDR1, transfected with; 10 µM): 12.9 ± 0.6 ×10⁻⁶ cm/s

CNC(=O)C1CCCN(C(=O)C2CC3CCC2N3C(=O)[C@@H]2C[C@@H](O)CN2C(=O)NCc2cccc(Cl)c2F)C1 (mixture of isomers)
remaining activity (CYP2C19 (Homo sapiens, UniProt P33261); enzyme activity, inhibitor, time-dependent inhibition; 50 µM, preincubated without NADPH; baseline: negative control): 83.7%

CN(C)c1ccc2c(c1)[Si](C)(C)c1cc(N(C)C)ccc1C21OC(=O)c2cc(C(=O)O)ccc21
Kd (ALB; binding, fluorescence titration; PBS): 34 ± 3 µM

COc1cccc(OC)c1-c1cc(C(=O)NC2(C(=O)O)C3CC4CC(C3)CC2C4)nn1-c1ccc(C(=O)N(C)CCCN(C)CCCN(C)C(=O)[C@H](CCCCNC(=O)[C@H](CC(C)C)NC(=O)C2OC2C(=O)O)NC(=O)CN2CCN(CC(=O)[O-])CCN(CC(=O)[O-])CCN(CC(=O)[O-])CC2)cc1C(C)C.[177Lu+3] (mixture of isomers)
tracer uptake (HT-29 tumour model; host not given, stomach; 7 days, tumour-bearing): 0.072 %ID/g

CCN(CC)CC#CCNc1ccnc2cc(Cl)ccc12
revertants per well (Salmonella typhimurium; mini-Ames test; TA98; 500.0 µg/well, without S9): 10

COC(=O)Nc1nc2cc(C(O)c3ccc(F)cc3)ccc2[nH]1 (centres unmarked)
revertants (Salmonella typhimurium; Ames preincubation test; TA100; 218.8 µg/plate, without S9): 164 revertants/plate

C=C(NC(=O)c1csc(-c2nc3c(cc2O)-c2nc(cs2)C(=O)NC(C(C)O)C(=O)NC(=C(C)OC)c2nc(cs2)C(=O)NC2c4nc(cs4)C(=O)NC(COC(=O)c4c5c6c(cccc6n4O)COC(=O)C(OC4CC(C)(O)C(N(C)C)C(C)O4)C2OC5)c2nc-3cs2)n1)C(N)=O (centres unmarked)
MRT(0-t) (ICR mice, Streptococcus pneumoniae ATCC 49169 infected, immunocompromised, blood; intravenous, 2 mg/kg/day once daily): 45.6 min

O=C(OC[C@@]1(O)C(=O)C=C[C@H]2[C@@H]1[C@H]1C=C[C@@H]2C(=O)[C@]1(O)COC(=O)c1ccccc1)c1ccccc1
viability (K562; cell growth or viability, MTT; 6.25 µg/mL): 98.5%

CCc1c(-c2ccc3[nH]ncc3c2)cnc(N)c1-c1ccc(O)cc1
viability (CHP-212 resistant sublines (heterozygous USP7 V517F); cell viability; 25 µM): 43.4% and 52.8%

CN(C)c1ccc2c(c1)C(C)(C)c1cc(N(C)C)ccc1C21OC(=O)c2ccc(C(=O)O)cc21
Kd (ALB; binding, fluorescence titration; PBS): 410 ± 150 µM

For quick reference, copied from above:
N#C[C@@H]1CC(F)(F)CN1C(=O)CNC(=O)c1ccnc2c(NC(=O)[C@H](CCCCNC(=O)CCOCCOCCOCCOCCOCCOCCNC(=O)CN3CCN(CC(=O)[O-])CCN(CC(=O)[O-])CCN(CC(=O)[O-])CC3)NC(=O)CCCc3ccc(I)cc3)cccc12.[177Lu+3]
tracer uptake (U-87 MG tumour model; host not given, stomach; 1 h, tumour-bearing): 4.72 %ID/g

O=C1C2CC3CC1CC(C(=O)N1CCN(c4ccc([N+](=O)[O-])c5ncccc45)CC1)(C3)C2
mean revertant colonies (Salmonella typhimurium; Ames test; TA97a; 0.02 µg/well, with S9): 23 colonies/well
